Assay results collected from several papers.
A part holds a random share of what one study measured. Substitutions count along the parent as printed.

Study 1
Target: ABI1, truncated, D143A, DHFR fusion (Arabidopsis thaliana)
Method: DHFR PCA, deep sequencing
Medium: yeast
Setting: methotrexate growth selection, single substitutions
Added: (+)-ABA 2500 µM
Reference: wild-type fitted maximum
Direction: higher = stronger binding
Starting sequence: PYL1, truncated, DHFR fusion (Arabidopsis thaliana); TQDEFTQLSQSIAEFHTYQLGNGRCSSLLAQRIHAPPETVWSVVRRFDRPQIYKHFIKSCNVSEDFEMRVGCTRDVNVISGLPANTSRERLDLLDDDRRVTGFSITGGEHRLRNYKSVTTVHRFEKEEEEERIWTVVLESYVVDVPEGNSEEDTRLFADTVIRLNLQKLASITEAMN; partner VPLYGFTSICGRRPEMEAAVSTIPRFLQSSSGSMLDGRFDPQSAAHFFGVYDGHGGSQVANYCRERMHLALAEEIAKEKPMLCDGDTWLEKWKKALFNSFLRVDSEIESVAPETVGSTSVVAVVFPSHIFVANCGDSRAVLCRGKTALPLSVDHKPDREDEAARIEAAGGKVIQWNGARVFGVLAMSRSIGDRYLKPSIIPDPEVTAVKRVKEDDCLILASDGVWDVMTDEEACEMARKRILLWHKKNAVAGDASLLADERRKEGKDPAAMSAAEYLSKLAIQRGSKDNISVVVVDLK
For `E89C`, “relative binding score” read 12.9%.
For `S11L`, “relative binding score” read 89.6%.
Under “relative binding score”, `V142R` is recorded as 91.2%.
`P36E`: “relative binding score” 98.4%.
For `V43K`, “relative binding score” read 93.4%.
`S171K`: “relative binding score” 96.5%.
`D144F` — result for “relative binding score”: 74.2%.
`A175H` — result for “relative binding score”: 95.3%.
Under “relative binding score”, `R46G` is recorded as 97.5%.
Under “relative binding score”, `S9T` is recorded as 101%.

Study 2
Target: CCNF, cyclin fold, Cln2 fusion (human)
Method: yeast growth competition, sequencing
Medium: yeast
Setting: strong parent motif
Reference: not given
Direction: higher = stronger binding
Starting sequence: SAMHD1 docking peptide (human); ASKSRVQLFKDDP; partner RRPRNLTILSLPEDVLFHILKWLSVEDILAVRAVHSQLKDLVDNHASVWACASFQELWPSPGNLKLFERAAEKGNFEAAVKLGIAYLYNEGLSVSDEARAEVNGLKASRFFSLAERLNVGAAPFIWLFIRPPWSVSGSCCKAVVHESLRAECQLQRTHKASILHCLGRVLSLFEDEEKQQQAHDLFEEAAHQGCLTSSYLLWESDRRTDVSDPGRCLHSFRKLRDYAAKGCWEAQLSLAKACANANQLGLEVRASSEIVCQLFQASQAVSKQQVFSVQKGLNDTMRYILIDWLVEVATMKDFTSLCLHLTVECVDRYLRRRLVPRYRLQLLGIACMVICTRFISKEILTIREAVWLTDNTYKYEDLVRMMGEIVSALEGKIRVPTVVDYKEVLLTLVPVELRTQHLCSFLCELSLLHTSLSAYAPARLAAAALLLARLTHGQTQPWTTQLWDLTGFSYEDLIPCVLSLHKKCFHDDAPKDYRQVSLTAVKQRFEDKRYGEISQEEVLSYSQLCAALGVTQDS
Under “normalised enrichment score”, `R5F` is recorded as 0.0242.
`F9R`: “normalised enrichment score” 0.102.
For `D12R`, “normalised enrichment score” read 0.757.
`V6E` — result for “normalised enrichment score”: 0.0208.
`L8H` — result for “normalised enrichment score”: -0.123.

Study 3
Target: Myc proto-oncogene protein, bHLH-zipper, MAX partner unstated (MYC, Homo sapiens, UniProt P01106, residues 368-449)
UniProt P01106, sequence (368-449, looked up): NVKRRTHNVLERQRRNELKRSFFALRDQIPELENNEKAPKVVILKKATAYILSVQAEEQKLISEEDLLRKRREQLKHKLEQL
Method: protein-binding microarray
Molecule type: double-stranded DNA, one strand shown
Medium: in vitro
Tested at: not given
Setting: k-mer, scored over probes, only values ≥0.25
Direction: higher = stronger binding
The E-score of `CACGCCTC` is reported as 0.373.
With `ATGTGCGG` the E-score was 0.369.
`CATGTGGG` has an E-score of 0.463.
For `ACCCCTCC`, the E-score was 0.306.
`CCGCGTGC` has an E-score of 0.474.
With `GAAAGCAC` the E-score was 0.264.
`AATGGCAT` has an E-score of 0.269.
With `CAGCGCGG` the E-score was 0.295.
For `ACGCCGCA`, the E-score was 0.316.

Single results of other studies
With `PhoQ, residues 284 288 289 292 302 303 AANNSF` the fold induction was 18.4 (PhoP, residues 12 14 15 18 19 LYFRQ (Escherichia coli, UniProt P23836); Sort-seq, item: YFP reporter; E. coli; PhoQ-PhoP variant library, added: 10 µM Mg2+; reference: high Mg2+ state, higher = stronger signaling).

A few entries again (study 3):
With `CAGCGCGG` the E-score was 0.295.
`CCGCGTGC` has an E-score of 0.474.
`AATGGCAT` has an E-score of 0.269.
With `ATGTGCGG` the E-score was 0.369.
